# Published values from different studies.
# Each line is one published result; not all experiments were run side by side. ± gives the spread as reported.
# Organism: Influenza A virus
Compound,read-out,mode,method,cells,strain,time,EC50 [µM]
COc1cc(-c2oc3cc(O)cc(O)c3c(=O)c2O[C@@H]2O[C@H](CO[C@@H]3O[C@@H](C)[C@H](OC(C)=O)[C@@H](O)[C@H]3OC(C)=O)[C@@H](O)[C@H](O)[C@H]2O)ccc1O,viral replication,,,MDCK,A/Vladivostok/2/09(H1N1),,197.7 ± 0.7
CN1CC23C4CCC5C4C4C2CCC4C53C1,viral replication,,,MDCK,H1N1 A/PR/8/34,,2.9
COc1c(CNC(=O)c2cc(C3CC3)nn2C)cccc1OC(F)(F)F,viral replication,,,MDCK,A/WSN/33,,0.025
CCOC(=O)C1=C[C@@H](OC(CC)CC)[C@H](NC(C)=O)[C@@H](NCCCCCCC(=O)Nc2cccc3c2C(=O)N(C2CCC(=O)NC2=O)C3=O)C1 (stereo partly drawn),viral replication,,,MDCK,H1N1,,1.71 ± 0.13
COc1cc(-c2oc3cc(O)cc(O)c3c(=O)c2O[C@@H]2O[C@H](CO)[C@@H](O)[C@H](OC(C)=O)[C@H]2O)ccc1O,viral replication,,,MDCK,A/Vladivostok/2/09(H1N1),,32.7 ± 0.075
C1CCN(CC23C4CCC5C4C4C(CCC42)C53)CC1,viral replication,,,MDCK,H3N2 A/HK/7/87,,> 100
COc1cc(-c2oc3cc(O[C@@H]4O[C@@H](C)[C@H](O)[C@@H](O)[C@H]4O)cc(O)c3c(=O)c2O[C@@H]2O[C@H](CO)[C@@H](O)[C@H](O)[C@H]2OC(=O)c2cc(O)c(O)c(O)c2)ccc1O,viral replication,,,MDCK,A/Vladivostok/2/09(H1N1),,259.3 ± 0.68
CN[C@H](CC(C)C)C(=O)N[C@H]1C(=O)N[C@@H](CC(N)=O)C(=O)N[C@H]2C(=O)N[C@H]3C(=O)N[C@H](C(=O)N[C@H](C(=O)O)c4cc(O)cc(O)c4-c4cc3ccc4O)[C@H](O)c3ccc(c(Cl)c3)Oc3cc2cc(c3O)Oc2ccc(cc2Cl)[C@H]1O,cytopathic effect,inhibitor,,MDCK,H3N2,72 h,38
Cc1ccc(CNC23CC4CC(CC(C4)C2)C3)s1,viral replication,,plaque reduction,MDCK,A/Udorn/72 wild-type M2,,9.6
COc1ccc(C2=C(N3CCSCC3)C(C)(OC)OC2=O)cc1 (stereo not drawn),,,,MDCK,H1N1 A/Weiss/43,72 h,25.6 ± 0.4
CCN(CC)C12C3CCC4C3C3C(CCC31)C42,viral replication,inhibitor,,,H3N2,,> 100
COC1=C(c2ccc(OC)cc2)C(=O)OC1(C)OC (stereo not drawn),,,,MDCK,H1N1 A/Weiss/43,72 h,7.5 ± 0.9
CN(Cc1ccccc1)CC12C3CCC4C3C3C(CCC31)C42,viral replication,,,MDCK,H1N1 A/PR/8/34,,> 100
CCOC(=O)C1=C[C@@H](OC(CC)CC)[C@H](NC(C)=O)[C@@H](NCCCCCC(=O)Nc2cccc3c2C(=O)N(C2CCC(=O)NC2=O)C3=O)C1 (stereo partly drawn),viral replication,,,MDCK,H1N1,,2.02 ± 0.06
COc1ccc(C2=C(N3CCCC(O)C3)C(C)(OC)OC2=O)cc1 (stereo not drawn),,,,MDCK,H1N1 A/Weiss/43,72 h,25.9 ± 0.1
CC(=N)NC12C3CCC4C3C3C(CCC31)C42,viral replication,,,MDCK,H1N1 A/PR/8/34,,> 100
CCOC(=O)C1=C[C@@H](OC(CC)CC)[C@H](NC(C)=O)[C@@H](NCCCCC(=O)Nc2cccc3c2C(=O)N(C2CCC(=O)NC2=O)C3=O)C1 (stereo partly drawn),viral replication,,,MDCK,H1N1,,1.19 ± 0.11
COc1cc(-c2oc3cc(O[C@@H]4O[C@@H](C)[C@H](O)[C@@H](O)[C@H]4O)cc(O)c3c(=O)c2O[C@@H]2O[C@H](CO[C@@H]3O[C@@H](C)[C@H](O)[C@@H](O)[C@H]3O)[C@@H](O)[C@H](OC(C)=O)[C@H]2O)ccc1O,viral replication,,,MDCK,A/Vladivostok/2/09(H1N1),,1.3 ± 0.04
c1csc(CNCC23C4CCC5C4C4C(CCC42)C53)c1,viral replication,,,MDCK,H3N2 A/HK/7/87,,> 100
CCOC(=O)C1=C[C@@H](OC(CC)CC)[C@H](NC(C)=O)[C@@H](NCCCCCCCCCC(=O)Nc2cccc3c2C(=O)N(C2CCC(=O)NC2=O)C3=O)C1 (stereo partly drawn),viral replication,,,MDCK,H1N1,,4.13 ± 0.14
COc1ccc(CNC23CC4CC(CC(C4)C2)C3)s1,viral replication,,plaque reduction,MDCK,A/Udorn/72 wild-type M2,,6.8

# For quick reference, copied from above:
Compound,read-out,mode,method,cells,strain,time,EC50 [µM]
CC(=N)NC12C3CCC4C3C3C(CCC31)C42,viral replication,,,MDCK,H1N1 A/PR/8/34,,> 100
CCOC(=O)C1=C[C@@H](OC(CC)CC)[C@H](NC(C)=O)[C@@H](NCCCCC(=O)Nc2cccc3c2C(=O)N(C2CCC(=O)NC2=O)C3=O)C1 (stereo partly drawn),viral replication,,,MDCK,H1N1,,1.19 ± 0.11
